Experimental data from different studies.
Every numbered part comes from another study and shows a few of its results, in no order. Several values in a cell are separate wells, animals, samples, runs or records.

Block 1
Compound: C[C@@H]1CN(c2ccc(-c3cc(C(=O)NCCOCCOCCOCCOCCOCCOCCNC(=O)/C=C/c4[nH]cc(C(=O)N[C@@H](CC(N)=O)c5ccc(F)c(Cl)c5)c4-c4ccc(Cl)cc4F)ccc3F)cc2NC(=O)c2ccc(F)cc2C(F)(F)F)C[C@H](C)N1C
Read-out: thermal unfolding
Method: differential scanning fluorimetry
Tested at: 5.5 µM
Reading: higher = more unfolded
DCAF1: DDB1- and CUL4-associated factor 1 (DCAF1, Homo sapiens, UniProt Q9Y4B6)
Sequence of UniProt Q9Y4B6 (whole entry, looked up): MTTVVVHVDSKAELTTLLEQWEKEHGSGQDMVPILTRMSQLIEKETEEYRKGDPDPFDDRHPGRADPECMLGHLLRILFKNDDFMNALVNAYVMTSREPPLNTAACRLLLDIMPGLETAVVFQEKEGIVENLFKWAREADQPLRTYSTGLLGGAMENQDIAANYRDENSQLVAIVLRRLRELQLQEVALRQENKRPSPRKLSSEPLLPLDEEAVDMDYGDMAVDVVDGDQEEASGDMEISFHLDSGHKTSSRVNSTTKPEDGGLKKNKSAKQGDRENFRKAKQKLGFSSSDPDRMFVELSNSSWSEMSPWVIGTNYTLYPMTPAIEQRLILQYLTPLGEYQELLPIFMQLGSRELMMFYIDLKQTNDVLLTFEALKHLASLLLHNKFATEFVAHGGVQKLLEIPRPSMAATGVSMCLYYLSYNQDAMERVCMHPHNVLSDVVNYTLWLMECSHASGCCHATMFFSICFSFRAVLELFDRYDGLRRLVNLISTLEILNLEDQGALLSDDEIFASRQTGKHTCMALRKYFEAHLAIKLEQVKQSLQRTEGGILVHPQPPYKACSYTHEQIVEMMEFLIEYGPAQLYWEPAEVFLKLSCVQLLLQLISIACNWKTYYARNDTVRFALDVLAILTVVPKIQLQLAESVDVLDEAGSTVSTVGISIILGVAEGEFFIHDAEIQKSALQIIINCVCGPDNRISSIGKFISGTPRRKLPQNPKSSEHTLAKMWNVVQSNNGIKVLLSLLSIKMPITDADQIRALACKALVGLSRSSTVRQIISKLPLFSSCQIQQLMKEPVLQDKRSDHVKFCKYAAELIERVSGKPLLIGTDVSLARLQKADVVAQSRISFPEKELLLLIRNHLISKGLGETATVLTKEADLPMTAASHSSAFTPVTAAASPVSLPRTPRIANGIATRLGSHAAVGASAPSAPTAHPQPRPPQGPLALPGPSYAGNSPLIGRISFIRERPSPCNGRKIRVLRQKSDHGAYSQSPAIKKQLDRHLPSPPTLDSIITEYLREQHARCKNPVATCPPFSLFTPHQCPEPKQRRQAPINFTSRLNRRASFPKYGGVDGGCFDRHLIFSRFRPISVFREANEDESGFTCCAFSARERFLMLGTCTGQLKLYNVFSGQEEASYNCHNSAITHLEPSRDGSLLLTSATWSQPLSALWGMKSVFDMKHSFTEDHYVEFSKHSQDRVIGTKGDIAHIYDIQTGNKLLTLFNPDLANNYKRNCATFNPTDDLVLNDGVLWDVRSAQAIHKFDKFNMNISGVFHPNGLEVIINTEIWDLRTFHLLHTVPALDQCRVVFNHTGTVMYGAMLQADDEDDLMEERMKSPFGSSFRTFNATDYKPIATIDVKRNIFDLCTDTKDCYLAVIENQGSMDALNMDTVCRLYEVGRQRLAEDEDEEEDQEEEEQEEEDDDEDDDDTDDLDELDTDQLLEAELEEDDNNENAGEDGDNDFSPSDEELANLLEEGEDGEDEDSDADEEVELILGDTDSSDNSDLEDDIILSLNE
WDR5: WD repeat-containing protein 5 (WDR5, Homo sapiens, UniProt P61964)
For DCAF1; 27 °C: “SYPRO Orange fluorescence” read 7580 a.u.
For WDR5; 76.21 °C: “SYPRO Orange fluorescence” read 53800 a.u.
For DCAF1; 79.41 °C: “SYPRO Orange fluorescence” read 40300 a.u.
For WDR5; 29.4 °C: “SYPRO Orange fluorescence” read 13500 a.u.
The “SYPRO Orange fluorescence” was 33800 a.u. (DCAF1; 88.21 °C).
The “SYPRO Orange fluorescence” was 8880 a.u. (DCAF1; 31.6 °C).

Other studies, line by line
The pSer9-GSK3β/total GSK3β of Cc1nc(C)c(C=[N+]([O-])C(C)(C)C)nc1C is reported as 159 and 276 and 181 and 190 (Western blot; MPTP mouse model; 30 mg/kg).
COc1cc(C(=O)OCCCN2CCCN(CCCOC(=O)c3cc(OC)c(OC)c(OCc4ccc([N+](=O)[O-])cc4)c3)CC2)cc(OC)c1OC: “rotarod fall latency” 80 s and 102 s and 70 s and 90 s and 72 s and 97 s (naive mice, mixed sexes; intrathecal, 100 nmol, 60 min).
For Cc1ccc(O)c(C)c1-c1cnc2[nH]c(-c3cnc(N4CCC5(CC4)CC(N4CCN(c6ccc(N[C@H]7CCC(=O)NC7=O)cc6F)CC4)CO5)nc3)cc2c1C#N (single isomer, unassigned), the inhibition was 66.5% (HCC1569; automated immunoblotting, item: CDK1 phospho-Thr14; concentration not given, 0 h after washout).
COCC1CC2C(CCC3C(O)CCC32)c2ccc(O)cc21 (stereo not drawn): “mRNA level ratio” 1.48 and 1.59 and 1.6 and 1.47 and 1.53 (PANC-1; DNA microarray, item: KIF20A; 25 µM; relative to: untreated cells).
With Cc1ncsc1-c1ccc(C2(NC(=O)C3CC(O)CN3C(=O)C(NC(=O)c3ccc(COc4c(-c5c(C)c(F)cc6[nH]ncc56)c(C5CC5)cc5c(N6CC7CC6CN7)nc(OC6CCOCC6)nc45)cc3)C(C)(C)C)CC2)cc1 (stereo not drawn) the phospho-ERK1/2 level was 108% and 98.8% and 104% and 102% and 101% (AsPC-1; in-cell ELISA; 30 nM, individual replicates).
The bioavailability of Cc1ccc(O)c(C)c1-c1cnc2[nH]c(-c3cnc(N4CCC(CN5CCN(c6ccc(NC7CCC(=O)NC7=O)cc6F)CC5)CC4)nc3)cc2c1C#N (stereo not drawn) is reported as 32.3% (male Sprague-Dawley rat, plasma; oral, 10 mg/kg).

Repeated from above (other studies, line by line):
COc1cc(C(=O)OCCCN2CCCN(CCCOC(=O)c3cc(OC)c(OC)c(OCc4ccc([N+](=O)[O-])cc4)c3)CC2)cc(OC)c1OC: “rotarod fall latency” 80 s and 102 s and 70 s and 90 s and 72 s and 97 s (naive mice, mixed sexes; intrathecal, 100 nmol, 60 min).
With Cc1ncsc1-c1ccc(C2(NC(=O)C3CC(O)CN3C(=O)C(NC(=O)c3ccc(COc4c(-c5c(C)c(F)cc6[nH]ncc56)c(C5CC5)cc5c(N6CC7CC6CN7)nc(OC6CCOCC6)nc45)cc3)C(C)(C)C)CC2)cc1 (stereo not drawn) the phospho-ERK1/2 level was 108% and 98.8% and 104% and 102% and 101% (AsPC-1; in-cell ELISA; 30 nM, individual replicates).
